Measurements pooled from the literature.
Each numbered part is a random draw from the data of one study; scales do not carry over between parts.

Study 1
Target: Prothrombin, mature alpha-thrombin (F2, Homo sapiens, UniProt P00734)
Technique: aptamer microarray, sandwich
Form: DNA with 2'F-ANA
Sample: in vitro
Concentration: 200 nM
Setting: whole 15-mer aptamer, many near background
With: Cy3 exosite-II aptamer, 400 nM
Reading: higher = stronger binding
Oligonucleotide: GGTTGGTGTGGTTGG
Modification	mean fluorescence intensity
2'F-ANA at 1 3 4 5 7 8 12 14 15	134 a.u.
2'F-ANA at 1 2 3 5 6 7 11 15	59.5 a.u.
2'F-ANA at 5 7 10 11 12 13 15	64.9 a.u.
2'F-ANA at 3 4 7 10 12 14 15	240 a.u.
2'F-ANA at 2 4 6 7 8 9 11 13 14 15	72.3 a.u.
2'F-ANA at 4 6 8 9 10	80.7 a.u.

Study 2
Target: Histone acetyltransferase KAT6A, both winged helices, GST fusion (KAT6A, Homo sapiens, UniProt Q92794, residues 1-181)
Technique: protein binding microarray
Form: double-stranded DNA, one strand shown
Sample: in vitro
Concentration: not given
Setting: 8-mer, flanks averaged, mean of 2 arrays, mostly near background
Relative to: not given
Reading: higher = stronger binding
Construct (chain): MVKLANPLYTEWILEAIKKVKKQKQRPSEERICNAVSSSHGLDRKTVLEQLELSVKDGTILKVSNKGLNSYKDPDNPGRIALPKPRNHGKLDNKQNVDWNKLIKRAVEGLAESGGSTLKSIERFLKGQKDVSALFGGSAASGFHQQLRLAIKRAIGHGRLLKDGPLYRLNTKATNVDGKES
Oligonucleotide	E-score
GGTAGCGA	0.0899
ACATGCGT	-0.00275
TCAGTAGA	-0.0584
GTCTGCAA	-0.0696
AGTGCAAT	-0.137
CCCCCCTC	-0.341

Study 3
Target: Interferon regulatory factor 7, full length, phosphomimetic (IRF7, Homo sapiens, UniProt Q92985, residues 1-503, S471D/S472D/S475D/S476D/S477D/S483D/S484D/S487D)
Technique: protein-binding microarray
Form: double-stranded DNA, one strand shown
Sample: in vitro
Concentration: 2200 nM top
Setting: 60-bp whole probe
With: salmon DNA 0.4 mg/ml
Relative to: random background probes
Reading: higher = stronger binding
Constant ends, left off below: GCCTAGCAC … GTGCTAGGTCTTGATTCGCTTGACGCTGCTG
Construct (chain): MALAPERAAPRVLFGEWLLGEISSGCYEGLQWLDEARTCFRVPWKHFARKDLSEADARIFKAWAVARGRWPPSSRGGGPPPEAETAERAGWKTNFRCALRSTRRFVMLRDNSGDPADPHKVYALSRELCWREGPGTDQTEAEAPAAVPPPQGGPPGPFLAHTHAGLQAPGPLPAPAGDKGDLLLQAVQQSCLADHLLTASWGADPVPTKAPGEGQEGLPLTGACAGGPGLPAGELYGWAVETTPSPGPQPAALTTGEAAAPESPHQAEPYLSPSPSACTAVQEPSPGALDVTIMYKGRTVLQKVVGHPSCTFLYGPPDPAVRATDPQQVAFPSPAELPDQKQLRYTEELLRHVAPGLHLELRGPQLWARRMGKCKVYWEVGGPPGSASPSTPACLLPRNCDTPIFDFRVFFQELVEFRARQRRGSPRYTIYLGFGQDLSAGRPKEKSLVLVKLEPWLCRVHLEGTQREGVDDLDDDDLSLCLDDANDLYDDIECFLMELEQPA
Oligonucleotide	fitted relative affinity [z-score]
TCAGCTCCCTTTCTCTCACT	1.46
TACTAGAGTAAAACCCTGGC	-0.436
GACGGACTTCTTATCCTGAC	0.51
TTAGGTCTCGGTCTCGGGTA	0.425
TCAGACTTGATTTTGGTACT	0.29

Further values, each from its own experiment
Substance	target	test	test system	conditions	scale	quantity	value
PhoQ, residues 284 288 289 292 302 303 AAQSYM	PhoP, residues 12 14 15 18 19 IQSYL (Escherichia coli, UniProt P23836)	Sort-seq, item: YFP reporter	E. coli	PhoQ-PhoP variant library, with: 10 µM Mg2+	relative to: high Mg2+ state, higher = stronger signaling	fold induction	5.63
